Published values from different studies.
Each line is one published result; not all experiments were run side by side. Numbers after ± are the reported error.

`CN(C(=O)n1cnc(-c2cccnc2)c1)C1CCCCC1` has a concentration of 8.8 ± 0.2 ng/g (Wistar rat, cerebral cortex; oral, 10 mg/kg/day of BIA 10-2474, 24 h, repeated 5 days).
With `O=C(O)C[C@H](O)C[C@H](O)/C=C/c1c(C2CC2)nc2ccccc2c1-c1ccc(F)cc1` the AUC(0-12h) was 1.16 µM·h (OATP1B1/1B3 humanized mouse, plasma; oral, 5 mg/kg, geometric mean, together with: silymarin 500 mg/kg oral).
For `CN(CC#N)C(=O)C[C@H](Nc1nc2ccccc2[nH]1)c1cccc(C(F)(F)F)c1`, the terminal half-life was 4.11 ± 0.37 h (human; intravenous infusion, 1 mg/kg, 5 mg/mL formulation).
The terminal half-life of `COc1nnc2ccc(N3CCC(c4ccc(OCCN5CCN(C)C(=O)[C@H]5C)cc4)CC3)nn12` is reported as 5.45 h (human, plasma; oral, 2 mg once daily, single dose, monotherapy).
`C[C@@H]1OC(=O)[C@H](Cc2ccccc2)[C@H]1O` — result for “share of total radioactive residue”: no more than 28.4 % TRR (laying hens, female, fat; oral, 10.7 mg/kg dry feed, 7 days).
The AUC(0-inf) of `COc1ccc2[nH]c([S+]([O-])Cc3ncc(C)c(OC)c3C)nc2c1` (stereo not shown) is reported as 954 ± 547 ng·h/mL (healthy Chinese volunteers, plasma; oral, 20 mg, fasted, CYP2C19 intermediate metabolizers).
For `CCN1/C(=C/C(C)=O)Sc2ccc(F)cc21`, “mean blood pressure change” read 104 ± 5.7% (cynomolgus monkey; oral, 10 mg/kg, 2 h post-dose; relative to: pre-dose).
Under “QTcI change from baseline”, `COc1c(N2C[C@@H]3CCCN[C@@H]3C2)c(F)cc2c(=O)c(C(=O)O)cn(C3CC3)c12` is recorded as -3 ms (healthy volunteers; oral, 400 mg single dose, day 5, 1.00 h).
Under “grade ≥3 dysphagia patients”, `Cc1ccc(C(=O)N(CCCN)C(c2nc3snc(C)c3c(=O)n2Cc2ccccc2)C(C)C)cc1` (stereo not shown) is recorded as 33% (human patients; intravenous, 10 mg/day).
For `CCc1cc(C(=O)NC)c2nccc(N3CCc4c(cc(Cn5ccnc5)cc4-c4cn(C)nc4C(F)(F)F)C3=O)c2c1`, “blood DBIL change” read -6.3% (Sprague Dawley rats; oral, 100 mg/kg twice daily, 7 days; relative to: vehicle).
`Cc1cn(-c2cc(NC(=O)c3ccc(C)c(Nc4nccc(-c5cccnc5)n4)c3)cc(C(F)(F)F)c2)cn1` — result for “central volume of distribution (V1)”: 557 L (population PK model, typical value; human, both sexes, plasma; oral, dose not given).
`Cn1cc(Nc2nccc(-c3ccc4c(c3)CN(C3COC3)CC[C@H]4NC(=O)c3cn(C(C)(C)C)nn3)n2)cn1` — result for “naive B cell count change”: 74.3% (human, whole blood; 150 mg twice daily, day 7; relative to: pre-dose baseline).
`Cn1cc2cc1C(=O)NCCCC(=O)Nc1cn(C)c(n1)C(=O)Nc1cn(C)c(n1)C(=O)Nc1cc(n(C)c1)C(=O)Nc1cc(n(C)c1)C(=O)NC[C@H](N)CC(=O)Nc1cc(n(C)c1)C(=O)Nc1cc(n(C)c1)C(=O)Nc1cc(n(C)c1)C(=O)N2`: “critical aggregation concentration” 4 µM (dynamic light scattering; 0.1% DMSO in PBS; 25 °C).
`CCn1c(=O)c2c(nc(/C=C/c3ccc(OC)c(OC)c3)n2C)n(CC)c1=O` gave a purity of 99.4% (HPLC; solution, dark; before light exposure).
Under “central volume of distribution”, `Cn1cnc2c(F)c(Nc3ccc(Br)cc3Cl)c(C(=O)NOCCO)cc21` is recorded as 38.8 L (human, plasma; oral, dose not given, zero-order absorption).
`O=C1Nc2ccc(Cl)cc2[C@@](C#CC2CC2)(C(F)(F)F)O1` — result for “trough plasma concentration”: 2820 ng/mL (human, plasma; oral, 600 mg, day 29, mean).
With `Nc1nc2c(nc([N+](=O)[O-])n2[C@@H]2O[C@H](CO)[C@@H](O)[C@H]2O)c(=O)[nH]1` the depurination half-life was 22.1 h (citrate phosphate buffer; 0.5 mM, pH 7.10, 37 °C).
`O=C(Nc1nc2cccc(-c3ccc(CN4CCS(=O)(=O)CC4)cc3)n2n1)C1CC1`: “treatment-emergent adverse events” 0% (refers to: investigations; human rheumatoid arthritis patients; oral, 150 mg once daily, 4 weeks, regardless of relatedness).
With `O=C(NCCCNc1nc(Nc2cccc(NC(=O)N3CCCC3)c2)ncc1Br)C1CCC1` the effective permeability was 0.885 ×10⁻⁶ cm/s (PAMPA; PBS; 5 h, pH 7.4).
For `COc1cc2c3c(n(CCCNCCO)c(=O)c2cc1OC)-c1nc2c(cc1C3=O)OCO2`, the dose-normalized AUC(0-t) was 1.8 ng·h/mL (male CD1 mouse, plasma; oral, 10 mg/kg).
`C=CCN1CC(=O)N2[C@@H](Cc3ccc(O)cc3F)C(=O)N(Cc3cccc(N4CC(N5CCN(CC)CC5)C4)n3)C[C@@H]2N1C(=O)NCc1ccccc1` has a treatment-related nausea of 0% (advanced solid tumour patients; oral, 20 mg twice daily, grade ≥3, dose-escalation).
For `C=CC(=O)N(C)CCOc1c(N)ncnc1-c1cc(F)cc(NC(=O)c2ccc(C3CC3)cc2F)c1C`, “AUC(0-inf) per dose” read 19.9 ng·h/mL/mg (human; oral, 20 mg, day 7, geometric mean, together with: ritonavir).
`CC[C@H](C)[C@H](NC(C)=O)C(=O)N[C@H]1CSSC[C@@H](C(=O)N[C@H](C(N)=O)[C@@H](C)O)NC(=O)[C@H](CCCNC(=N)N)NC(=O)[C@H](Cc2c[nH]cn2)NC(=O)[C@H](Cc2cccc3ccccc23)NC(=O)CNC(=O)[C@H](Cc2c[nH]c3ccccc23)NC(=O)[C@H](CC(=O)O)NC(=O)[C@H](CCC(N)=O)NC(=O)[C@H](Cc2c[nH]c3ccccc23)NC(=O)[C@H](C(C)C)NC1=O` has a retention factor of 5.002 ± 0.006 (isocratic RP-HPLC, C18; 32% acetonitrile, phosphate pH 7.4, 1% TFA; 25 °C).
`COc1ncc(-c2nc3c(n2C(C)C)[C@H](c2ccc(Cl)cc2)N(c2cc(Cl)cn(C)c2=O)C3=O)c(OC)n1` has a median Tmax of 4.2 h (human patients, plasma; oral, 30 mg, cycle 1 day 1, low-dose).
`CCCCCN1C[C@H](O)[C@@H](O)[C@H](O)[C@@H]1CO` — result for “mean brain concentration”: 274 ng/g (LC-MS/MS; Hexb-/- mice, female, brain; 300 mg/kg/day).
`O=C(O)CCC(=O)O.[2H]C([2H])([2H])Oc1cc(C)c2[nH]ccc2c1CN1CC[C@@H](C2CC2)C[C@H]1c1ccc(C(=O)O)cc1` — result for “subjects with proteinuria TEAE”: 25% (multiple ascending dose; healthy Chinese subjects; 125 mg twice daily).
`CC[C@H](C)[C@H](NC(C)=O)C(=O)N[C@H]1CSSC[C@@H](C(=O)N[C@H](C(N)=O)[C@@H](C)O)NC(=O)[C@H](CCCNC(=N)N)NC(=O)[C@H](Cc2c[nH]cn2)NC(=O)[C@](C)(CC)NC(=O)CNC(=O)[C@H](Cc2c[nH]c3ccccc23)NC(=O)[C@H](CC(=O)O)NC(=O)[C@H](CCC(N)=O)NC(=O)[C@H](Cc2c[nH]c3ccccc23)NC(=O)[C@H](C(C)C)NC1=O` gave a retention factor of 3.533 ± 0.007 (RP-HPLC, C18; 28% acetonitrile isocratic; pH 7.4).
`COc1ccc2c(=O)n(C)c(-c3ccccc3)nc2c1` gave a tissue/plasma ratio of 20.2 (Sprague-Dawley rat, male, stomach; oral, 30 mg/kg, 4 h; relative to: stomach over plasma).
For `O=C(c1cccnc1-c1ccncc1)N1CCC(O)(Cc2ccccc2)CC1`, the Vz/F was 769 L (healthy Japanese adults, plasma; oral, 1200 mg single dose).
For `Cc1c(C(=O)O)ccc2c3n(nc12)[C@@H]1[C@H](C3)N(CC2CC2)[C@@]2(C(=O)Nc3cc(Cl)ccc32)[C@H]1c1cccc(Cl)c1F`, “adverse event incidence” read 52% (phase Ia trial, refers to: Fatigue; cancer patients; oral, dose not given).
`CC[C@H](C)CCCCC(=O)N[C@@H](CCN)C(=O)N[C@H](C(=O)N[C@@H](CCN)C(=O)N[C@H]1CCNC(=O)[C@H]([C@@H](C)O)NC(=O)[C@H](CCN)NC(=O)[C@H](CCN)NC(=O)[C@H](CC(C)C)NC(=O)[C@@H](Cc2ccccc2)NC(=O)[C@H](CCN)NC1=O)[C@@H](C)O` has a urinary excretion of 1.67% (human, normal renal function, urine; intravenous, 0.75 mg/kg, 0-6 h, arithmetic mean).
`CCC[C@H]1CC[C@H](c2ccc(C#N)cc2)CC1` has a fetal accumulation of 4.17 ± 2.31 ng/g (Sprague-Dawley rat, female, fetus; 5000 ng/mL in perfusate, 50 (unit not given), high dose, mixture of 21 LCMs).
The concentration of `O=C(N[C@H](Cc1c[nH]c2ccccc12)C(=O)Nc1ccncc1)c1ccc(-c2ccc(F)c(Cl)c2)cc1F` is reported as 30.8 µM (Swiss Webster mouse, female, lung; oral, 50 mg/kg, 2 h, 20% Kolliphor vehicle).
`CCCCCNC(=O)N1CCC(CN(Cc2ccc(Cl)cc2)Cc2ccc([N+](=O)[O-])s2)C1` (stereo not shown): “mean platelet volume” 5.4 ± 0.2 fL (complete blood count; C57BL/6 mice, blood; 100 mg/kg twice daily, 7 days).
`CCn1c(C(=O)N(C2CC2)C2CC2)cc2c3c(ncn3C)c(Nc3cc(C)n(C)n3)nc21` has a plasma concentration of 4740 ng/mL (cancer patients; oral, 200 mg twice daily, day 15, 336.0 h).
Under “subjects with adverse event”, `CC(C)(C(=O)N1CCOc2c(C#N)cncc2C1)C(F)F` is recorded as 0% (refers to: Arthralgia; human; oral, 20 mg once daily, 14 days, multiple ascending dose).
`NC(=O)c1cnc2[nH]ccc2c1N[C@@H]1[C@@H]2CC3C[C@H]1C[C@@](O)(C3)C2` gave a central volume of 253 L (healthy human volunteers, plasma; oral, dose not given, population PK model, bootstrap median).
The dose-normalised Cmax of `C[C@@]1(c2cc(NC(=O)c3ccc(C#N)cn3)ccc2F)C=CSC(N)=N1` is reported as 5.8 ng/mL (elderly humans, both sexes, plasma; oral, 90 mg single dose).
`CC(C)n1c(Nc2cccnc2)nc2cnc(Nc3ccc(N4CCN(C)CC4)cc3)nc21`: “subjects with adverse event” 7.1% (refers to: urine leukocytes positive; healthy male subjects; oral, 150 mg, study, together with: rifampin).
For `CCCC1CCC(c2ccc(OCC)c(F)c2F)CC1` (stereo not shown), the fetal accumulation was 0.176 ± 0.132 ng/g (rat, fetus; 10 ng/mL in perfusate, low dose, mixture of 21 LCMs).
`CO[C@H]1C[C@@H]2CC[C@@H](C)[C@@](O)(O2)C(=O)C(=O)N2CCCC[C@H]2C(=O)O[C@H]([C@H](C)C[C@@H]2CC[C@@H](O)[C@H](OC)C2)CC(=O)[C@H](C)/C=C(\C)[C@@H](O)[C@@H](OC)C(=O)[C@H](C)C[C@H](C)/C=C/C=C/C=C/1C` has a rectal temperature of 36.5 ± 0.6 °C (healthy adult horses; oral, 0.06 mg/kg, 0 h).
For `N#CC(Cc1ccc(O)cc1)c1ccc(O)cc1` (stereo not shown), the dose-normalised Cmax was 0.1 µM per µmol/kg (female Long-Evans rats, serum; subcutaneous, 5.2 µmol/kg).
Under “participants with TEAE”, `Cc1ccc(Sc2ccccc2N2CCNCC2)c(C)c1` is recorded as 0% (refers to: haemoglobin decreased; healthy adult men; oral, 5 mg daily, 12 days).
`NC/C(=C\F)COc1cccc(Cn2c(=S)[nH]c(=O)c3[nH]cnc32)c1` has a remaining compound of 75% (human liver microsomes; 1 µM, 1 h).
`Cc1ccc([C@@H]2O[C@H](CO)[C@@H](O)[C@H](O)[C@H]2O)cc1Cc1ccc(-c2ccc(F)cc2)s1`: “urinary sodium excretion change” 1.85 mEq (Japanese type 2 diabetes patients; 400 mg, day 4, 24 h urine collection; relative to: baseline).
The retention time of `CC[C@H](C)[C@H](NC(=O)CN)C(=O)N[C@@H](CCCNC(=N)N)C(=O)N[C@@H](CCCNC(=N)N)C(=O)N[C@@H](Cc1ccccc1)C(=O)N[C@@H](CC(C)C)C(=O)N[C@@H](CCCNC(=N)N)C(=O)N[C@]1(C)CCCCCCC=CCCC[C@@](C)(C(=O)N[C@@H](Cc2ccccc2)C(=O)N[C@@H](CCCNC(=N)N)C(N)=O)NC(=O)[C@H](CCCNC(=N)N)NC(=O)[C@H](C(C)C)NC(=O)[C@H](Cc2ccccc2)NC(=O)[C@H](CCCNC(=N)N)NC(=O)[C@H](CCCNC(=N)N)NC(=O)[C@H](C)NC1=O` is reported as 2.75 min (UPLC; TFA water/acetonitrile gradient; longer = more hydrophobic).
`C=CC(=O)Nc1cc(Nc2nccc(-c3cn(C)c4ccccc34)n2)c(OC)cc1N(C)CCN(C)C` has a recovery of 93.6% (storage stability; human plasma; 24 h, -80 °C, LLOQ level).
`CCN1CCN(Cc2ccc(Nc3ncc(F)c(-c4cc(F)c5nc6n(c5c4)[C@H](C)CCC6)n3)nc2)CC1` has a Vd of 1630 to 2320 L (non-compartmental; human, phase Ia).
`O=C1NCCc2nc(OCc3cccc(F)c3)ccc21`: “Irwin test score” 0 (refers to: loss of Righting; Sprague-Dawley rat male; oral, 100 mg/kg, 0 min; relative to: baseline, direction not given).
